{"data": "Measured values pooled from the literature", "note": "Parts stem from different laboratories: compare values within a part only.", "chain of UniProt O95819 (whole entry, looked up)": "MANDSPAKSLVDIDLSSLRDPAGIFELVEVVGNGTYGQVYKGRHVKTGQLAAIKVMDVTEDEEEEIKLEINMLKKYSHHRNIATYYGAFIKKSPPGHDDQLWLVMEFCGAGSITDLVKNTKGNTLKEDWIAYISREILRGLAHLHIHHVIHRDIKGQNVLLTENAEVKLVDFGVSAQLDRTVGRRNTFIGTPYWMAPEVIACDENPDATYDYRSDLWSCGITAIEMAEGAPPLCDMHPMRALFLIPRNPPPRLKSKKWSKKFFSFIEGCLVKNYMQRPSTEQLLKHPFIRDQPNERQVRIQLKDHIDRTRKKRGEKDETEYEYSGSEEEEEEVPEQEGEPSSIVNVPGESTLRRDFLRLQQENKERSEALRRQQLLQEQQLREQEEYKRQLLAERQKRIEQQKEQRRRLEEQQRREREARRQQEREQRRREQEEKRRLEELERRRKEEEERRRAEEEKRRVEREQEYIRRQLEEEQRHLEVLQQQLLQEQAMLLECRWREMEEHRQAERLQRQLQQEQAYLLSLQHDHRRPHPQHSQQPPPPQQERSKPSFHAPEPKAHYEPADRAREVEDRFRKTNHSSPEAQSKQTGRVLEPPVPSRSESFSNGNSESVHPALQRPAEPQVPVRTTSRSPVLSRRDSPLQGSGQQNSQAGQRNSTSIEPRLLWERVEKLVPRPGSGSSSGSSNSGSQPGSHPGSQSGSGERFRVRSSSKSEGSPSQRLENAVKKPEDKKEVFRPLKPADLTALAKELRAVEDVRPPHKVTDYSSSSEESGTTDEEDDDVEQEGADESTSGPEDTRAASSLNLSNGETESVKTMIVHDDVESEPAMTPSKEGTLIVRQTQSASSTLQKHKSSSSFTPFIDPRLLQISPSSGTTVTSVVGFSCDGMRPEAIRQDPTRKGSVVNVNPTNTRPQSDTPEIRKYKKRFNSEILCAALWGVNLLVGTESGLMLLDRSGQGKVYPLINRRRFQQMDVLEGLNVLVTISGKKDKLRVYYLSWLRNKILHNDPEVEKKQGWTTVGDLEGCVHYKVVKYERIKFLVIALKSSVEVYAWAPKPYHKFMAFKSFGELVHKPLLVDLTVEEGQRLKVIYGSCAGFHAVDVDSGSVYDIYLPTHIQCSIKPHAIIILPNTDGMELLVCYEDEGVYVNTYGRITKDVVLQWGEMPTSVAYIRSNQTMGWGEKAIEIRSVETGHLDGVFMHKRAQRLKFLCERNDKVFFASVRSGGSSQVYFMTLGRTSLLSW", "chain of UniProt Q96PF2 (whole entry, looked up)": "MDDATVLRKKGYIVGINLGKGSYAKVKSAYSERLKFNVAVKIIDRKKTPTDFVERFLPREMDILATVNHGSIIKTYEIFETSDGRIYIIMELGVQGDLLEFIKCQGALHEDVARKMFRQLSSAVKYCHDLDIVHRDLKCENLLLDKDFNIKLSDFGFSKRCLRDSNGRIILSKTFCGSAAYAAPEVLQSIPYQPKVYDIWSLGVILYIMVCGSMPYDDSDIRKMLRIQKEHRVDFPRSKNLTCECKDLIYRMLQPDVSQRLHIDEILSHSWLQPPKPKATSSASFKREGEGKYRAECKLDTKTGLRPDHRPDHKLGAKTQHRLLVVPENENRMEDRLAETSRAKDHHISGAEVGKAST", "chain of UniProt Q9Y3S1 (whole entry, looked up)": "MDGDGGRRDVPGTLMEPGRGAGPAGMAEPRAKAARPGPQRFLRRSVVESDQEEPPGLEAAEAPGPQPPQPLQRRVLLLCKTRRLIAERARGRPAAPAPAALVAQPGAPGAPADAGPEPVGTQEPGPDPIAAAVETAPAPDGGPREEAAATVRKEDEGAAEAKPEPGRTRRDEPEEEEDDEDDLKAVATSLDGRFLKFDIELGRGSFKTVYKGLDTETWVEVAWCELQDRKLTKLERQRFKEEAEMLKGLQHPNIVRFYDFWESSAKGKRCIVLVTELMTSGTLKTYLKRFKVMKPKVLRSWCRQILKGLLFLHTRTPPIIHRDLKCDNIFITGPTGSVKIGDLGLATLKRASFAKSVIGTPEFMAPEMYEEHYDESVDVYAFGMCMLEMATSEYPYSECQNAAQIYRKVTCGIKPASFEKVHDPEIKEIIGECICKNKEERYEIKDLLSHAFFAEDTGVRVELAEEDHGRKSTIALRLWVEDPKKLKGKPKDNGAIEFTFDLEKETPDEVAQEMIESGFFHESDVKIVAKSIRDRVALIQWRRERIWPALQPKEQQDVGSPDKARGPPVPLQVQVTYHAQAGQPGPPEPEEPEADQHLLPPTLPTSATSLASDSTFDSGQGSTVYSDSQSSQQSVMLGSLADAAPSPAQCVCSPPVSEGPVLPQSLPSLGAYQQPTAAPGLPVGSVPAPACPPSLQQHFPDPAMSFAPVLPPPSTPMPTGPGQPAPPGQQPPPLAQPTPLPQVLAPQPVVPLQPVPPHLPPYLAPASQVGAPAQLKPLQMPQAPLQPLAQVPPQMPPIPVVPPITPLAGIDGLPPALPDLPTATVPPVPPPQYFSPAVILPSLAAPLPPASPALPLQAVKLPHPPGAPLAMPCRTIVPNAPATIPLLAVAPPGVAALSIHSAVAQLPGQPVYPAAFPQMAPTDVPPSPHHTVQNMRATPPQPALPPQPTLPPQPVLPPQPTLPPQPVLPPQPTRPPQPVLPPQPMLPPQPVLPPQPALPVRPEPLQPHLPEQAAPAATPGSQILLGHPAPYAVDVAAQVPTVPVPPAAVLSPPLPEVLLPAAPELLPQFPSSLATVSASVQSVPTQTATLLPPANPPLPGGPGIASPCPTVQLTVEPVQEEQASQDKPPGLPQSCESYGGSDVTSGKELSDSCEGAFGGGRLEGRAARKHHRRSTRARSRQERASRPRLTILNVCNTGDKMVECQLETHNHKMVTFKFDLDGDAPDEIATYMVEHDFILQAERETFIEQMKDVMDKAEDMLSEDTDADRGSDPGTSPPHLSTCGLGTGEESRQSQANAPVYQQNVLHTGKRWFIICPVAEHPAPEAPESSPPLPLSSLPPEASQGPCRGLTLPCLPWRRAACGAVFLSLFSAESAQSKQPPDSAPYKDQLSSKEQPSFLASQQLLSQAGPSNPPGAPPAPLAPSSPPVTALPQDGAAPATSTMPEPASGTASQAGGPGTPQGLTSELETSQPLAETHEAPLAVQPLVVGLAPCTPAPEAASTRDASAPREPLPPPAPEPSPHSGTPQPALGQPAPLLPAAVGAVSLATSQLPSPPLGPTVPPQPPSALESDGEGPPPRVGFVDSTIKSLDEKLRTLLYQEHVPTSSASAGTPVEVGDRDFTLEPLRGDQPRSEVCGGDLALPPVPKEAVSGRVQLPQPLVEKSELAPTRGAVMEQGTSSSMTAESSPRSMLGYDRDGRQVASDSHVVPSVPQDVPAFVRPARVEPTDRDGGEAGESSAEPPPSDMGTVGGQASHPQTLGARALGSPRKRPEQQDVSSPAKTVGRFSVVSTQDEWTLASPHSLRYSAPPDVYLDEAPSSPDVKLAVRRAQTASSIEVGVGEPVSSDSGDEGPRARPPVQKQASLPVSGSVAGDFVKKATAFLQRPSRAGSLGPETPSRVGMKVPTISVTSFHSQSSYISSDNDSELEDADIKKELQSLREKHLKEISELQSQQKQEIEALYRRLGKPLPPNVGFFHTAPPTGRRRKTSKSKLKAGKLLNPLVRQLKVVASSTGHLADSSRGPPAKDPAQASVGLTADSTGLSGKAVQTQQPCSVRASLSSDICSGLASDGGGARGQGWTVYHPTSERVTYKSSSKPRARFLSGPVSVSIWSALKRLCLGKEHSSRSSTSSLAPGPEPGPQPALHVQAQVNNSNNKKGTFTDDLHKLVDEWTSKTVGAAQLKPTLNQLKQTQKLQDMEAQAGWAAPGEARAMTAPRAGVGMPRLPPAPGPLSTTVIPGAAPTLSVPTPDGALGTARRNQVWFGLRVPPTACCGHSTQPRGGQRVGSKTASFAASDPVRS", "chain of UniProt P54760 (whole entry, looked up)": "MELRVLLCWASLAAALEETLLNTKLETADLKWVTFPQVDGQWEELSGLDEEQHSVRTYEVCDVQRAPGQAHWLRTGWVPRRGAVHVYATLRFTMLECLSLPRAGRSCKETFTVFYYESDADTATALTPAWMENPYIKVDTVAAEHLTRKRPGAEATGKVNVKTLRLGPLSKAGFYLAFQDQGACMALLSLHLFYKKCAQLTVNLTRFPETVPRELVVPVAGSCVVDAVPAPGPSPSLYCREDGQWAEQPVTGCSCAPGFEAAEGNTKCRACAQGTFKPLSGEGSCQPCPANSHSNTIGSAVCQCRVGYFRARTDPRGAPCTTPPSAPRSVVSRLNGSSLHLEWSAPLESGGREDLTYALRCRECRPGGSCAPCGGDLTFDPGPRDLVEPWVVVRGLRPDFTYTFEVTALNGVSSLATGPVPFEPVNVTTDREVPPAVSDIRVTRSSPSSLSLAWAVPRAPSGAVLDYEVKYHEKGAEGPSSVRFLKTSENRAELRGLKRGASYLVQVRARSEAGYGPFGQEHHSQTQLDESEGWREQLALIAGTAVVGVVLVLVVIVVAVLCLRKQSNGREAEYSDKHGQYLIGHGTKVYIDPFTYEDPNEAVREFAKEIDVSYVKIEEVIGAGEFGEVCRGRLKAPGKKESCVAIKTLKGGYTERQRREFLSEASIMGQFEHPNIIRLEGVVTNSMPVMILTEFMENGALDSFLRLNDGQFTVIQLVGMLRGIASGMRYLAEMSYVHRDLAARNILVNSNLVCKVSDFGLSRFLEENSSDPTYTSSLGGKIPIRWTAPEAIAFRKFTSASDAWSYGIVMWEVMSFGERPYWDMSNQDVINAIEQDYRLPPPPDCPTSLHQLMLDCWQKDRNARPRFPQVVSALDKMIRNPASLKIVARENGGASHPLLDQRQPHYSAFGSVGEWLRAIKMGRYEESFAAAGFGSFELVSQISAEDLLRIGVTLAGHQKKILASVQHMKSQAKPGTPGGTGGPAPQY"}
{"data": "Block 1", "Structure (SMILES)": "Cc1cc(Nc2nc(-c3ccccc3)nc3ccccc23)n[nH]1", "effect on": "enzyme activity", "mode": "inhibitor", "tested at": "0.5 µM", "relative to": "control"}
{"target": "Cyclin-dependent kinase 1, with cyclin B (CDK1, Homo sapiens, UniProt P06493)", "remaining activity [%]": 76}
{"target": "Serine/threonine-protein kinase WNK3 (WNK3, Homo sapiens, UniProt Q9BYP7)", "remaining activity [%]": 74.9}
{"target": "Ephrin type-B receptor 1 (EPHB1, Homo sapiens, UniProt P54762)", "remaining activity [%]": 93.1}
{"target": "Cyclin-dependent kinase 4, with cyclin D3 (CDK4, Homo sapiens, UniProt P11802)", "remaining activity [%]": 94.4}
{"target": "Homeodomain-interacting protein kinase 4 (HIPK4, Homo sapiens, UniProt Q8NE63)", "remaining activity [%]": 102}
{"target": "Phosphorylase b kinase gamma catalytic chain, skeletal muscle/heart isoform (PHKG1, Homo sapiens, UniProt Q16816)", "remaining activity [%]": 71.7}
{"target": "Ribosomal protein S6 kinase alpha-6 (RPS6KA6, Homo sapiens, UniProt Q9UK32)", "remaining activity [%]": 56.2}
{"target": "Ephrin type-B receptor 4 (EPHB4, Homo sapiens, UniProt P54760)", "remaining activity [%]": 91.1}
{"target": "Tyrosine-protein kinase Srms (SRMS, Homo sapiens, UniProt Q9H3Y6)", "remaining activity [%]": 98.7}
{"target": "Ribosomal protein S6 kinase alpha-5 (RPS6KA5, Homo sapiens, UniProt O75582)", "remaining activity [%]": 70.5}
{"target": "MAP kinase-activated protein kinase 3 (MAPKAPK3, Homo sapiens, UniProt Q16644)", "remaining activity [%]": 81}
{"target": "Tyrosine-protein kinase receptor UFO (AXL, Homo sapiens, UniProt P30530)", "remaining activity [%]": 101}
{"target": "Mitogen-activated protein kinase kinase kinase kinase 4 (MAP4K4, Homo sapiens, UniProt O95819)", "remaining activity [%]": 25.7}
{"target": "Tyrosine-protein kinase ABL1 (ABL1, Homo sapiens, UniProt P00519)", "remaining activity [%]": 75.4}
{"target": "3-phosphoinositide-dependent protein kinase 1 (PDPK1, Homo sapiens, UniProt O15530)", "remaining activity [%]": 90.3}
{"target": "Homeodomain-interacting protein kinase 2 (HIPK2, Homo sapiens, UniProt Q9H2X6)", "remaining activity [%]": 101}
{"target": "Serine/threonine-protein kinase 16 (STK16, Homo sapiens, UniProt O75716)", "remaining activity [%]": 24.7}
{"target": "Dual specificity tyrosine-phosphorylation-regulated kinase 3 (DYRK3, Homo sapiens, UniProt O43781)", "remaining activity [%]": 81.9}
{"target": "Calcium/calmodulin-dependent protein kinase type II subunit beta (CAMK2B, Homo sapiens, UniProt Q13554)", "remaining activity [%]": 97.7}
{"target": "Serine/threonine-protein kinase 17A (STK17A, Homo sapiens, UniProt Q9UEE5)", "remaining activity [%]": 81.3}
{"target": "Tyrosine-protein kinase Blk (BLK, Homo sapiens, UniProt P51451)", "remaining activity [%]": 56.2}
{"target": "Ephrin type-A receptor 4 (EPHA4, Homo sapiens, UniProt P54764)", "remaining activity [%]": 70.7}
{"target": "Cyclin-dependent kinase 6, with cyclin D3 (CDK6, Homo sapiens, UniProt Q00534)", "remaining activity [%]": 58.4}
{"target": "Testis-specific serine/threonine-protein kinase 2 (TSSK2, Homo sapiens, UniProt Q96PF2)", "remaining activity [%]": 105}
{"data": "Block 2", "Structure (SMILES)": "CC(C)n1cnc(-c2ccc(F)cc2)c1-c1ncc(C(=O)Nc2ccc(N3CCN(C)CC3)cc2)[nH]1"}
{"test": "measured: periorbital oedema, grade 5", "system": "idiopathic pulmonary fibrosis patients", "conditions": "oral, 30 mg once daily", "patients with adverse event": "0%"}
{"test": "Phase 2a trial, measured: hyperuricaemia", "system": "human, idiopathic pulmonary fibrosis", "conditions": "60 mg once daily, grade 5", "patients with adverse event": "0%"}
{"test": "Phase 2a trial, measured: blood urea increased", "system": "human, idiopathic pulmonary fibrosis", "conditions": "30 mg once daily, grade 5", "patients with adverse event": "0%"}
{"test": "measured: prostatic calcification, maximum grade 3", "system": "idiopathic pulmonary fibrosis patients", "conditions": "dose not given, all compound arms pooled", "patients with adverse event": "0%"}
{"test": "Phase 2a trial, measured: blood urea increased", "system": "human, idiopathic pulmonary fibrosis", "conditions": "all compound arms total, grade 3", "patients with adverse event": "0%"}
{"test": "Phase 2a trial, measured: hepatic steatosis", "system": "human, idiopathic pulmonary fibrosis", "conditions": "all compound arms total, grade 4", "patients with adverse event": "0%"}
{"test": "Phase 2a trial, measured: blood creatine phosphokinase increased", "system": "human, idiopathic pulmonary fibrosis", "conditions": "all compound arms total, grade 2", "patients with adverse event": "0%"}
{"test": "Phase 2a trial, measured: blood fibrinogen increased", "system": "human, idiopathic pulmonary fibrosis", "conditions": "30 mg once daily, grade 2", "patients with adverse event": "0%"}
{"test": "Phase 2a trial, measured: eosinophilia myalgia syndrome", "system": "human, idiopathic pulmonary fibrosis", "conditions": "60 mg once daily, grade 2", "patients with adverse event": "0%"}
{"test": "measured: abnormal liver function test, grade 4", "system": "idiopathic pulmonary fibrosis patients", "conditions": "oral, 60 mg once daily", "patients with adverse event": "0%"}
{"test": "Phase 2a trial, measured: blood glucose increased", "system": "human, idiopathic pulmonary fibrosis", "conditions": "30 mg once daily, grade 3", "patients with adverse event": "0%"}
{"test": "Phase 2a trial, measured: respiratory, thoracic, mediastinal disorders", "system": "human, idiopathic pulmonary fibrosis", "conditions": "30 mg once daily, grade 5", "patients with adverse event": "0%"}
{"test": "measured: any adverse event, grade 4", "system": "idiopathic pulmonary fibrosis patients", "conditions": "oral, 30 mg once daily", "patients with adverse event": "0%"}
{"data": "Block 3", "technique": "linear regression of PRP log k'"}
{"Structure (SMILES)": "CCCC(=O)NCCCCCC(=O)N[C@H](C(=O)N1C[C@H](O)C[C@H]1C(=O)NCc1ccc(-c2scnc2C)cc1)C(C)(C)C", "logD (1,9-decadiene/water)": -2.95}
{"Structure (SMILES)": "CCCN1CC(=O)N[C@@H](CC2CCCCC2)C(=O)N(C)[C@@H](C)C(=O)N[C@@H](CC(C)C)C(=O)N(C)[C@H](C(=O)OCC)CSCC(=O)N[C@@H](CC(C)C)C(=O)N(C)[C@@H](C)C(=O)N[C@@H](CC(C)C)C(=O)N2CCC[C@@H]2C1=O", "logD (1,9-decadiene/water)": 4.5}
{"Structure (SMILES)": "CCOC(=O)[C@@H]1CSCC(=O)N[C@@H](CC(C)C)C(=O)N(C)[C@@H](C)C(=O)N[C@@H](CC(C)C)C(=O)N2CCC[C@@H]2C(=O)N(CC)CC(=O)N[C@@H](CC2CCCCC2)C(=O)N(C)[C@@H](C)C(=O)N[C@@H](CC(C)C)C(=O)N1C", "logD (1,9-decadiene/water)": 3.86}
{"Structure (SMILES)": "CCCC(=O)OCCCCCC(=O)N[C@H](C(=O)N1C[C@H](O)C[C@H]1C(=O)NCc1ccc(-c2scnc2C)cc1)C(C)(C)C", "logD (1,9-decadiene/water)": -1.43}
{"Structure (SMILES)": "Cc1ncsc1-c1ccc(CNC(=O)[C@@H]2C[C@@H](O)CN2C(=O)[C@@H](NC(=O)CCCCCNC(=O)C2CCCCC2)C(C)(C)C)cc1", "logD (1,9-decadiene/water)": -2.1}
{"Structure (SMILES)": "COCC(=O)NCCCCCC(=O)N[C@H](C(=O)N1C[C@H](O)C[C@H]1C(=O)NCc1ccc(-c2scnc2C)cc1)C(C)(C)C", "logD (1,9-decadiene/water)": -3.27}
{"Structure (SMILES)": "Cc1ncsc1-c1ccc(CNC(=O)[C@@H]2C[C@@H](O)CN2C(=O)[C@@H](NC(=O)CCCCCOC(=O)CC23C[C@H]4C[C@@H](C2)C[C@@H](C3)C4)C(C)(C)C)cc1", "logD (1,9-decadiene/water)": 1.85}
{"data": "Block 4", "SMILES": "CC(=O)N1CCC(c2ccc(C(=O)NC3=NCCN3)cc2C(F)(F)F)CC1", "effect on": "cell-free assay", "technique": "competition with immobilised ligand", "tested at": "1 µM"}
{"target": "Mitogen-activated protein kinase 12 (MAPK12, Homo sapiens, UniProt P53778)", "remaining binding [%]": 55}
{"target": "Mitogen-activated protein kinase kinase kinase 9 (MAP3K9, Homo sapiens, UniProt P80192)", "remaining binding [%]": 100}
{"target": "Tyrosine-protein kinase Fyn (FYN, Homo sapiens, UniProt P06241)", "remaining binding [%]": 76}
{"target": "G protein-coupled receptor kinase 3 (GRK3, Homo sapiens, UniProt P35626)", "remaining binding [%]": 76}
{"target": "Mitogen-activated protein kinase kinase kinase kinase 4 (MAP4K4, Homo sapiens, UniProt O95819)", "remaining binding [%]": 100}
{"target": "Tyrosine-protein kinase ABL1, non-phosphorylated (ABL1, Homo sapiens, UniProt P00519, Q252H)", "remaining binding [%]": 88}
{"target": "Ribosomal protein S6 kinase beta-1 (RPS6KB1, Homo sapiens, UniProt P23443)", "remaining binding [%]": 100}
{"target": "Mitogen-activated protein kinase 13 (MAPK13, Homo sapiens, UniProt O15264)", "remaining binding [%]": 75}
{"target": "Tyrosine-protein kinase JAK1, JH1 (JAK1, Homo sapiens, UniProt P23458)", "remaining binding [%]": 100}
{"target": "Serine/threonine-protein kinase Nek9 (NEK9, Homo sapiens, UniProt Q8TD19)", "remaining binding [%]": 100}
{"target": "Epidermal growth factor receptor (EGFR, Homo sapiens, UniProt P00533)", "remaining binding [%]": 100}
{"target": "Serine/threonine-protein kinase SIK3 (SIK3, Homo sapiens, UniProt Q9Y2K2)", "remaining binding [%]": 100}
{"target": "Ribosomal protein S6 kinase alpha-1, N-terminal kinase domain (RPS6KA1, Homo sapiens, UniProt Q15418)", "remaining binding [%]": 100}
{"target": "Cyclin-dependent kinase 16 (CDK16, Homo sapiens, UniProt Q00536)", "remaining binding [%]": 84}
{"target": "Phosphatidylinositol 4,5-bisphosphate 3-kinase catalytic subunit alpha isoform (PIK3CA, Homo sapiens, UniProt P42336, C420R)", "remaining binding [%]": 93}
{"target": "Peripheral plasma membrane protein CASK (CASK, Homo sapiens, UniProt O14936)", "remaining binding [%]": 85}
{"target": "Serine/threonine-protein kinase D2 (PRKD2, Homo sapiens, UniProt Q9BZL6)", "remaining binding [%]": 100}
{"target": "Cyclin-dependent kinase 8 (CDK8, Homo sapiens, UniProt P49336)", "remaining binding [%]": 100}
{"target": "High affinity nerve growth factor receptor (NTRK1, Homo sapiens, UniProt P04629)", "remaining binding [%]": 100}
{"target": "TGF-beta receptor type-2 (TGFBR2, Homo sapiens, UniProt P37173)", "remaining binding [%]": 100}
{"target": "Activin receptor type-1 (ACVR1, Homo sapiens, UniProt Q04771)", "remaining binding [%]": 100}
{"target": "Protein kinase C eta type (PRKCH, Homo sapiens, UniProt P24723)", "remaining binding [%]": 100}
{"target": "Serine/threonine-protein kinase WNK2 (WNK2, Homo sapiens, UniProt Q9Y3S1)", "remaining binding [%]": 100}
{"target": "Mitogen-activated protein kinase 14 (MAPK14, Homo sapiens, UniProt Q16539)", "remaining binding [%]": 100}
{"target": "Serine/threonine-protein kinase 25 (STK25, Homo sapiens, UniProt O00506)", "remaining binding [%]": 100}
{"note": "Some of these lines once more (block 2):"}
{"test": "Phase 2a trial, measured: blood fibrinogen increased", "system": "human, idiopathic pulmonary fibrosis", "conditions": "30 mg once daily, grade 2", "patients with adverse event": "0%"}
{"test": "measured: prostatic calcification, maximum grade 3", "system": "idiopathic pulmonary fibrosis patients", "conditions": "dose not given, all compound arms pooled", "patients with adverse event": "0%"}
{"test": "Phase 2a trial, measured: hyperuricaemia", "system": "human, idiopathic pulmonary fibrosis", "conditions": "60 mg once daily, grade 5", "patients with adverse event": "0%"}
{"test": "Phase 2a trial, measured: hepatic steatosis", "system": "human, idiopathic pulmonary fibrosis", "conditions": "all compound arms total, grade 4", "patients with adverse event": "0%"}
{"test": "measured: any adverse event, grade 4", "system": "idiopathic pulmonary fibrosis patients", "conditions": "oral, 30 mg once daily", "patients with adverse event": "0%"}
{"test": "Phase 2a trial, measured: blood creatine phosphokinase increased", "system": "human, idiopathic pulmonary fibrosis", "conditions": "all compound arms total, grade 2", "patients with adverse event": "0%"}
{"test": "Phase 2a trial, measured: blood urea increased", "system": "human, idiopathic pulmonary fibrosis", "conditions": "all compound arms total, grade 3", "patients with adverse event": "0%"}
{"test": "measured: periorbital oedema, grade 5", "system": "idiopathic pulmonary fibrosis patients", "conditions": "oral, 30 mg once daily", "patients with adverse event": "0%"}
